Experimental data pooled from the literature.
Compare with care: the assays were run in different laboratories. Numbers after ± are the reported error.
Method: steady-state kinetics
B1: DCXR (Homo sapiens, UniProt Q7Z4W1); chain MELFLAGRRVLVTGAGKGIGRGTVQALHATGARVVAVSRTQADLDSLVRECPGIEPVCVDLGDWEATERALGSVGPVDLLVNNAAVALLQPFLEVTKEAFDRSFEVNLRAVIQVSQIVARGLIARGVPGAIVNVSSQCSQRAVTNHSVYCSTKGALDMLTKVMALELGPHKIRVNAVNPTVVMTSMGQATWSDPHKAKTMLNRIPLGKFAEVEHVVNAILFLLSDRSGMTTGSTLPVEGGFWAC
B2: GTPBP3 N259A (Homo sapiens, UniProt Q969Y2); chain TRRSSGAPAPGSGATIFALSSGQGRCGIAVIRTSGPASGHALRILTAPRDLPLARHASLRLLSDPRSGEPLDRALVLWFPGPQSFTGEDCVEFHVHGGPAVVSGVLQALGSVPGLRPAEAGEFTRRAFANGKLNLTEVEGLADLIHAETEAQRRQALRQLDGELGHLCRGWAETLTKALAHVEAYIDFGEDDNLEEGVLEQADIEVRALQVALGAHLRDARRGQRLRSGVHVVVTGPPAAGKSSLVNLLSRKPVSIVSPEPGTTRDVLETPVDLAGFPVLLSDTAGLREGVGPVEQEGVRRARERLEQADLILAMLDASDLASPSSCNFLATVVASVGAQSPSDSSQRLLLVLNKSDLLSPEGPGPGPDLPPHLLLSCLTGEGLDGLLEALRKELAAVCGDPSTDPPLLTRARHQHHLQGCLDALGHYKQSKDLALAAEALRVARGHLTRLTGGGGTEEILDIIFQDFCVGK
B3: ycjS (Escherichia coli, UniProt P77503); chain MKSAMTSSPLRVAIIGAGQVADKVHASYYCTRNDLELVAVCDSRLSQAQALAEKYGNASVWDDPQAMLLAVKPDVVSVCSPNRFHYEHTLMALEAGCHVMCEKPPAMTPEQAREMCDTARKLGKVLAYDFHHRFALDTQQLREQVTNGVLGEIYVTTARALRRCGVPGWGVFTNKELQGGGPLIDIGIHMLDAAMYVLGFPAVKSVNAHSFQKIGTQKSCGQFGEWDPATYSVEDSLFGTIEFHNGGILWLETSFALNIREQSIMNVSFCGDKAGATLFPAHIYTDNNGELMTLMQREIADDNRHLRSMEAFINHVQGKPVMIADAEQGYIIQQLVAALYQSAETGTRVEL
B4: oxdC T165S (Bacillus subtilis, UniProt O34714); chain MKKQNDIPQPIRGDKGATVKIPRNIERDRQNPDMLVPPETDHGTVSNMKFSFSDTHNRLEKGGYAREVTVRELPISENLASVNMRLKPGAIRELHWHKEAEWAYMIYGSARVTIVDEKGRSFIDDVGEGDLWYFPSGLPHSIQALEEGAEFLLVFDDGSFSENSSFQLTDWLAHTPKEVIAANFGVTKEEISNLPGKEKYIFENQLPGSLKDDIVEGPNGEVPYPFTYRLLEQEPIESEGGKVYIADSTNFKVSKTIASALVTVEPGAMRELHWHPNTHEWQYYISGKARMTVFASDGHARTFNYQAGDVGYVPFAMGHYVENIGDEPLVFLEIFKDDHYADVSLNQWLAMLPETFVQAHLDLGKDFTDVLSKEKHPVVKKKCSK
B5: PRODH2 157-515 (Homo sapiens, UniProt Q9UF12); chain YGQFVAGETAEEVKGCVQQLRTLSLRPLLAVPTEEEPDSAAKSGEAWYEGNLGAMLRCVDLSRGLLEPPSLAEASLMQLKVTALTSTRLCKELASWVRRPGASLELSPERLAEAMDSGQNLQVSCLNAEQNQHLRASLSRLHRVAQYARAQHVRLLVDAEYTSLNPALSLLVAALAVRWNSPGEGGPWVWNTYQACLKDTFERLGRDAEAAHRAGLAFGVKLVRGAYLDKERAVAQLHGMEDPTQPDYEATSQSYSRCLELMLTHVARHGPMCHLMVASHNEESVRQATKRMWELGIPLDGTVCFGQLLGMCDHVSLALGQAGYVVYKSIPYGSLEEVIPYLIRRAQENRSVLQGARRE
B6: SUOX P168A (Homo sapiens, UniProt P51687); chain ESTHIYTKEEVSSHTSPETGIWVTLGSEVFDVTEFVDLHPGGPSKLMLAAGGPLEPFWALYAVHNQSHVRELLAQYKIGELNPEDKVAATVETSDPYADDPVRHPALKVNSQRPFNAEPPPELLTENYITPNPIFFTRNHLPVPNLDPDTYRLHVVGAPGGQSLSLSLDDLHNFPRYEITVTLQCAGNRRSEMTQVKEVKGLEWRTGAISTARWAGARLCDVLAQAGHQLCETEAHVCFEGLDSDPTGTAYGASIPLARAMDPEAEVLLAYEMNGQPLPRDHGFPVRVVVPGVVGARHVKWLGRVSVQPEESYSHWQRRDYKGFSPSVDWETVDFDSAPSIQELPVQSAITEPRDGETVESGEVTIKGYAWSGGGRAVIRVDVSLDGGLTWQVAKLDGEEQRPRKAWAWRLWQLKAPVPAGQKELNIVCKAVDDGYNVQPDTVAPIWNLRGVLSNAWHRVHVYVSP
B7: pol D141A/E143A (Thermococcus kodakarensis, UniProt P77933); chain 1 MILDTDYITEDGKPVIRIFKKENGEFKIEYDRTFEPYFYALLKDDSAIEEVKKITAERHGTVVTVKRVEKVQKKFLGRPVEVWKLYFTHPQDVPAIRDKIREHPAVIDIYEYDIPFAKRYLIDKGLVPMEGDEELKMLAFAIATLYHEGEEFAEGPILMISYADEEGARVITWKNVDLPYVDVVSTEREMIKRFLRVVKEKDPDVLITYNGDNFDFAYLKKRCEKLGINFALGRDGSEPKIQRMGDRFAVEVKGRIHFDLYPVIRRTINLPTYTLEAVYEAVFGQPKEKVYAEEITTAWETGENLERVARYSMEDAKVTYELGKEFLPMEAQLSRLIGQSLWDVSRSSTGNLVEWFLLRKAYERNELAPNKPDEKELARRRQSYEGGYVKEPERGLWENIVYLDFR; chain 2 SLYPSIIITHNVSPDTLNREGCKEYDVAPQVGHRFCKDFPGFIPSLLGDLLEERQKIKKKMKATIDPIERKLLDYRQRAIKILAN; chain 3 NSYYGYYGYARARWYCKECAESVTAWGREYITMTIKEIEEKYGFKVIYSDTDGFFATIPGADAETVKKKAMEFLKYINAKLPGALELEYEGFYKRGFFVTKKKYAVIDEEGKITTRGLEIVRRDWSEIAKETQARVLEALLKDGDVEKAVRIVKEVTEKLSKYEVPPEKLVIHEQITRDLKDYKATGPHVAVAKRLAARGVKIRPGTVISYIVLKGSGRIGDRAIPFDEFDPTKHKYDAEYYIENQVLPAVERILRAFGYRKEDLRYQKTRQVGLSAWLKPKGT
B8: LYPLA2 (Homo sapiens, UniProt O95372); chain MCGNTMSVPLLTDAATVSGAERETAAVIFLHGLGDTGHSWADALSTIRLPHVKYICPHAPRIPVTLNMKMVMPSWFDLMGLSPDAPEDEAGIKKAAENIKALIEHEMKNGIPANRIVLGGFSQGGALSLYTALTCPHPLAGIVALSCWLPLHRAFPQAANGSAKDLAILQCHGELDPMVPVRFGALTAEKLRSVVTPARVQFKTYPGVMHSSCPQEMAAVKEFLEKLLPPV
B9: enzyme (Thermobifida fusca, UniProt Q47RK4); chain MTDVYILDAVRTPFGRYGGALSGIRPDDLAAHVLRALAERSPGLDPAAVDDVFFGDANGAGEDNRNVARMAALLAGWPTSVPGVTLNRLCGSGMESVIAANRAIAVGDASLAVAGGVESMSRAPWVLPKPAQGFPTGHETLYSTTLGWRMVNPAMPEQWTVSLGESTEQVAATYGISRAEQDAFALRSHERAARAWAEGVFDAEITQIPGAELERDESIRETSAEKLAALKPAFRPDGTITAGNASPLNDGAAALLIGDAAAAERVGREPLARIVSRGVAAVDPDVFGIGPVQAAEIALRRAGIGWDDLSVVELNEAFAAQSLACLKLWPDLDPEIVNPNGGAIAIGHPLGASGARIVGTLAHELHRRGGGWGLAAICIGVGQGLAVVLHR
B10: tsaM1 F253S/H255G/M230N/R216A/S234V/S257H (Comamonas testosteroni, UniProt P94679); chain MFIRNCWYVAAWDTEIPAEGLFHRTLLNEPVLLYRDTQGRVVALENRCCHRSAPLHIGRQEGDCVRCLYHGLKFNPSGACVEIPGQEQIPPKTCIKSYPVVERNRLVWIWMGDPARANPDDIVDYFWHDSPEWRMKPGYIHYQANYKLIVDNLLDFTHLAWVHPTTLGTDSAASLKPVIERDTTGTGKLTITRWYLNDDMSNLHKGVAKFEGKADAWQIYQWSPPALLRNDTGVAPTGTGAPEGRRVPEAVQSRGTHIQTPETETTSHYWFCQARNFDLDDEALTEKIYQGVVVAFEEDRTMIEAHEKILSQVPDRPMVPIAADAGLNQGRWLLDRLLKAENGGTAP
B11: Paox H64A (Mus musculus, UniProt Q8C0L6); chain MAFPGPRVLVVGSGIAGLGAAQKLCSHRAAPHLRVLEATASAGGRIRSERCFGGVVELGAHWIAGPSQDNPVFQLAAEFGLLGEKELSEENQLVDTGGHVALPSMIWSSSGTSVSLELMTEMARLFYGLIERTREFLNESETPMASVGEFLKKEISQQVASWTEDDEDTRKRKLAILNTFFNIECCVSGTHSMDLVALAPFGEYTVLPGLDCILAGGYQGLTDRILASLPKDTVAFDKPVKTIHWNGSFQEAAFPGETFPVLVECEDGARLPAHHVIVTVPLGFLKEHQDTFFEPPLPAKKAEAIKKLGFGTNNKIFLEFEEPFWEPDCQFIQVVWEDTSPLQDTALSLQDTWFKKLIGFLVQPSFESSHVLCGFIAGLESEFMETLSDEEVLLSLTQVLRRVTGNPQLPAAKSVRRSQWHSAPYTRGSYSYVAVGSTGDDLDLMAQPLPEDGTGTQLQVLFAGEATHRTFYSTTHGALLSGWREADRLVSLWDSQVEQSRPRL

Molecule | substrate | pH | temperature | setting | together with | kcat/Km [M⁻¹ s⁻¹]
B1 (DCXR) | CC(=O)C(C)=O | pH 7 | – | – | NADPH 200 µM | 33900
protein (Clostridioides difficile, UniProt Q18B70) | C[C@@H](O)[C@H](N)C(=O)O | pH 8 | 37 °C | – | AcCoA 1 mM, L-Thr 0-10 mM | 1400
B2 (GTPBP3 N259A) | Nc1nc2c(ncn2[C@@H]2O[C@H](COP(=O)(O)OP(=O)(O)OP(=O)(O)O)[C@@H](O)[C@H]2O)c(=O)[nH]1 | pH 8 | 37 °C | KCl 300 mM | – | 108
B3 (ycjS) | CO[C@@H]1O[C@H](CO)[C@@H](O)C(=O)[C@H]1O | pH 7 | 30 °C | – | NADH 0.3 mM | 23400 ± 2200
B4 (oxdC T165S) | O=C(O)C(=O)O | pH 4.2 | 25 °C | – | – | 3170
B5 (PRODH2 157-515) | O=C(O)[C@@H]1C[C@@H](O)CN1 | pH 7.5 | 25 °C | – | O2 | 0.07 ± 0.02
B6 (SUOX P168A) | O=S(O)O | pH 8 | 25 °C | – | oxidized cyt c 400 µM | 1.5e+06
B7 (pol D141A/E143A) | Nc1nc2c(ncn2[C@H]2C[C@H](O)[C@@H](COP(=O)(O)OP(=O)(O)OP(=O)(O)O)O2)c(=O)[nH]1 | pH 8 | 55 °C | – | – | 1.5e+06 ± 100000
B8 (LYPLA2) | CN(C)c1ccc(/N=N/c2ccc(C(=O)NCCCn3cc(CCCCCCCCCCCCCCCC(=O)SC[C@H](NC(=O)c4cc5ccc(O)cc5oc4=O)C(=O)N4CCOCC4)nn3)cc2)cc1 | pH 7.4 | 37 °C | – | – | 2300
B9 (enzyme) | CC(=O)SCCNC(=O)CCNC(=O)[C@H](O)C(C)(C)COP(=O)(O)OP(=O)(O)OC[C@H]1O[C@@H](n2cnc3c(N)ncnc32)[C@H](O)[C@@H]1OP(=O)(O)O | pH 7.4 | 37 °C | – | – | 1.5
HARS1 (Homo sapiens, UniProt P12081) | Nc1ncnc2c1ncn2[C@@H]1O[C@H](COP(=O)(O)OP(=O)(O)OP(=O)(O)O)[C@@H](O)[C@H]1O | pH 7.5 | – | – | histidine, tRNAHis 5 µM, MgCl2 10 mM, KCl 150 mM | 130000
B10 | COc1cc(C(=O)O)ccc1O | – | – | apparent | NADH 1 mM | 5100 ± 530
rebH (Lentzea aerocolonigenes, UniProt Q8KHZ8) | c1ccc2c3c([nH]c2c1)CNCC3 | – | – | – | glucose dehydrogenase regeneration | 1.51
B11 (Paox H64A) | CC(=O)NCCCNCCCCNCCCN | pH 10 | 30 °C | – | – | 62000 ± 14000

For quick reference, copied from above:
Molecule | substrate | pH | temperature | setting | together with | kcat/Km [M⁻¹ s⁻¹]
B11 (Paox H64A) | CC(=O)NCCCNCCCCNCCCN | pH 10 | 30 °C | – | – | 62000 ± 14000
rebH (Lentzea aerocolonigenes, UniProt Q8KHZ8) | c1ccc2c3c([nH]c2c1)CNCC3 | – | – | – | glucose dehydrogenase regeneration | 1.51
